Measurements pooled from the literature.
Each numbered part is a random draw from the data of one study; scales do not carry over between parts. Values joined by “and” are separate records of one study, mostly repeats; a detail may differ.
UniProt O75676, sequence (whole entry, looked up): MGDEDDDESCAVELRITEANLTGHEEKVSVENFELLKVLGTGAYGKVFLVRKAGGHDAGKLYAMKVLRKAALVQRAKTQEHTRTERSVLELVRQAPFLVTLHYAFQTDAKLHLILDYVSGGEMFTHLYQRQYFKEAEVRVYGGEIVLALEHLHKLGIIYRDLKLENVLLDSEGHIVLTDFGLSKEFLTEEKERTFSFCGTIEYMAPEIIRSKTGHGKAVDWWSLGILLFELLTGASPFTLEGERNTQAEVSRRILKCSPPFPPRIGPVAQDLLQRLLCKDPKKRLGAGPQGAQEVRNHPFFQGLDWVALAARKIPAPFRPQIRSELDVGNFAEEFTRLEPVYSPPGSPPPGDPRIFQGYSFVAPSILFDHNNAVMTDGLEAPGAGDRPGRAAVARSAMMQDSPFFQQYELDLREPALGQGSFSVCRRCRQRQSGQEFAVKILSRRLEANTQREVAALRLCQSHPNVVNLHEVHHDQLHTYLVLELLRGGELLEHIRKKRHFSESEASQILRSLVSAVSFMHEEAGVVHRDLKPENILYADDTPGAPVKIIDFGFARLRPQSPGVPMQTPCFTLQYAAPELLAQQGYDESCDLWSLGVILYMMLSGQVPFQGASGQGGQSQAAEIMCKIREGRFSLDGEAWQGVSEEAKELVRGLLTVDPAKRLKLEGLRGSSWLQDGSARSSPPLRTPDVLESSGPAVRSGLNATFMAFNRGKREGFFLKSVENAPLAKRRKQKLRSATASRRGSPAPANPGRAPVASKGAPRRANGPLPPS
UniProt P06241, sequence (whole entry, looked up): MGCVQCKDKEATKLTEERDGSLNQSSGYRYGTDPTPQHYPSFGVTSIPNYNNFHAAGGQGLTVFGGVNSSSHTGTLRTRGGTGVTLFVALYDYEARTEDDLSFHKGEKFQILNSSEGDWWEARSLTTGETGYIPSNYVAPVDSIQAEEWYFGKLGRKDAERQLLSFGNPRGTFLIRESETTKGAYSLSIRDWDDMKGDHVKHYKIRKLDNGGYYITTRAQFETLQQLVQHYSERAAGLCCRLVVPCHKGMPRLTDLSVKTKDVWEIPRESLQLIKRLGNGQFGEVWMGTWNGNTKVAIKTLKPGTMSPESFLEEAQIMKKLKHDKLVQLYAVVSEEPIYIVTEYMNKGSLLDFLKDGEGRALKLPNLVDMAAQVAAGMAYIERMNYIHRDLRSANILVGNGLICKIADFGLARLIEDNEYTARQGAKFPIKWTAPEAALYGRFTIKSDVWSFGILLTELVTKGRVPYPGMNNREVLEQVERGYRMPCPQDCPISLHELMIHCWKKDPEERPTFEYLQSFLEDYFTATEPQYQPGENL
UniProt O94806, sequence (whole entry, looked up): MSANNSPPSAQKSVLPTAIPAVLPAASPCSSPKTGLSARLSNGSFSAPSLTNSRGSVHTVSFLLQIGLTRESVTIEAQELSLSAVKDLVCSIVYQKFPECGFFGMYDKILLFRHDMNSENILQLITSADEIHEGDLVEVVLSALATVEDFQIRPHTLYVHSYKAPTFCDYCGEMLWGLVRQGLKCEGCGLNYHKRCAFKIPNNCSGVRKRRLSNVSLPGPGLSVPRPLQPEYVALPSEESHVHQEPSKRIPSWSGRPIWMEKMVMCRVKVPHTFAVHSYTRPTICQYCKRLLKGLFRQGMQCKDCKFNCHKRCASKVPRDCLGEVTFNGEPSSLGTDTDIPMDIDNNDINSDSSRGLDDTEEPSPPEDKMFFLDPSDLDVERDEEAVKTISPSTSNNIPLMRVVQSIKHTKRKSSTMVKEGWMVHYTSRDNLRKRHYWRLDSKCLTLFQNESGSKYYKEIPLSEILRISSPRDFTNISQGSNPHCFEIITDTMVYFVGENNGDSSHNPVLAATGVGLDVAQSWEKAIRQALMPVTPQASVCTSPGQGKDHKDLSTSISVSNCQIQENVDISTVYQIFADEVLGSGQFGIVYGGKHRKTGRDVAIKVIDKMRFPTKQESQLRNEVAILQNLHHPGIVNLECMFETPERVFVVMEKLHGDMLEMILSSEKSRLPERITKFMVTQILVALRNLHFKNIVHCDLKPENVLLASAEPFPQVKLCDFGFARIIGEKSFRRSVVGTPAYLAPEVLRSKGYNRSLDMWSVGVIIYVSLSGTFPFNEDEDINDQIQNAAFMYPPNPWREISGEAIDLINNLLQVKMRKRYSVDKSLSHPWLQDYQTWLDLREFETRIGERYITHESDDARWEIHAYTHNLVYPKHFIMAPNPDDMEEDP
UniProt Q13237, sequence (whole entry, looked up): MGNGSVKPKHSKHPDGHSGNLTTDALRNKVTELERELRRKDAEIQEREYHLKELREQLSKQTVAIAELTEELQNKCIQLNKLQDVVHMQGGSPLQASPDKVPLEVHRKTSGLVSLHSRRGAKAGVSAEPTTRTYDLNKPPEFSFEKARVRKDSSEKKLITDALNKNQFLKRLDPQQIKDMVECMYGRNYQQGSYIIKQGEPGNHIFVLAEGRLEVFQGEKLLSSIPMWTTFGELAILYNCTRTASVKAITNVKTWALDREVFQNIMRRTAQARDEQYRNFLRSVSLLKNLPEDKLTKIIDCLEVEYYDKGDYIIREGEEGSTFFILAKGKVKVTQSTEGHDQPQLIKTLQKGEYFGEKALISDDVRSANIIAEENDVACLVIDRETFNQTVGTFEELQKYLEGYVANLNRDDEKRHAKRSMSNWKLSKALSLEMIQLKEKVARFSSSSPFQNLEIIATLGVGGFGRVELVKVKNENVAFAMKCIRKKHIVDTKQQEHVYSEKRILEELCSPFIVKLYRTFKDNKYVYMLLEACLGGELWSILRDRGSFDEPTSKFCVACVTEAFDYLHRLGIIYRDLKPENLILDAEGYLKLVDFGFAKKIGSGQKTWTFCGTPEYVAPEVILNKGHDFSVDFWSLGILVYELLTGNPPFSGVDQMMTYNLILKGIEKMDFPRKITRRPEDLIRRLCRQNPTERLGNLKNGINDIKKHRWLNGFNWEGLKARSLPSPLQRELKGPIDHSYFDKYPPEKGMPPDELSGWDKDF
UniProt P29597, sequence (whole entry, looked up): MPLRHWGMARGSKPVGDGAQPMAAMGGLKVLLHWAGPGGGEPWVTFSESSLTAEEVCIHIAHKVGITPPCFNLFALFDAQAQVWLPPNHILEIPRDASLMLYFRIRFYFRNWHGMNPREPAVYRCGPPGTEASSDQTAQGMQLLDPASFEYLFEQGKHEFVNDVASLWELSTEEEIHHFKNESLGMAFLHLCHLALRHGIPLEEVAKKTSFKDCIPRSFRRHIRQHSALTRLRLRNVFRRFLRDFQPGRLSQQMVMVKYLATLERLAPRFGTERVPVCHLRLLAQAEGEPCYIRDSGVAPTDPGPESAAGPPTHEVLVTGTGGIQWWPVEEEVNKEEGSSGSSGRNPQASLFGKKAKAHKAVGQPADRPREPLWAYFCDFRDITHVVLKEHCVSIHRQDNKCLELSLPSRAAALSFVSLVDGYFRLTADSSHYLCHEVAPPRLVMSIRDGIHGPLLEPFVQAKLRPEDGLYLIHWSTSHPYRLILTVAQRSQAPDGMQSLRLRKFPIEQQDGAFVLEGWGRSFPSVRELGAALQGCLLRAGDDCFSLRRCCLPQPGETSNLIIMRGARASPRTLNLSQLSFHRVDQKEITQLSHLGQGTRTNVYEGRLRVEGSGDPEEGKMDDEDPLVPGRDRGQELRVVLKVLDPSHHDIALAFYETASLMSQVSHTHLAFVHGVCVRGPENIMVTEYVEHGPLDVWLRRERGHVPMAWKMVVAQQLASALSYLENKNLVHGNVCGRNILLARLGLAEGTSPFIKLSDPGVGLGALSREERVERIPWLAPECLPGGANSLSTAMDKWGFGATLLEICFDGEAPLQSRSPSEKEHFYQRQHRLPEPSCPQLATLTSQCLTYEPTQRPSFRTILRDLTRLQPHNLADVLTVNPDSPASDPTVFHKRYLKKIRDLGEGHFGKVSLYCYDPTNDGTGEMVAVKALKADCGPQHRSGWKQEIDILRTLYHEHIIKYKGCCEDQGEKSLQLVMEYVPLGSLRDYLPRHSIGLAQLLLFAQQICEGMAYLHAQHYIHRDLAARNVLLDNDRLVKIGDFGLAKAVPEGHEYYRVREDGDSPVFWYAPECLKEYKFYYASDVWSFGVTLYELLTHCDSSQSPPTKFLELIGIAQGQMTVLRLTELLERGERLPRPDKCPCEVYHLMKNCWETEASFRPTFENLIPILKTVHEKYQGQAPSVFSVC

Set 1 — observed: binding; action: competitor; method: NanoBRET; cells: HEK293
Compound: Cn1cnc(Cn2ccc3ccc(CNCc4[nH]c5ccccc5c4[C@H]4NC(=O)c5ccc(O)cc54)cc32)c1
KRAS G12C: GTPase KRas (KRAS, Homo sapiens, UniProt P01116, G12C)
| target | concentration | time | relative to | normalized BRET |
| --- | --- | --- | --- | --- |
| KRAS G12C | 339 pM | 0.5 h | vehicle and 20 µM BI compound | 97.2% and 88.1% and 90.1% and 110% |
| KRAS G12C | 82.2 nM | 4 h | vehicle and 20 µM BI compound | 98.7% and 106% and 103% and 107% |
| GTPase KRas (KRAS, Homo sapiens, UniProt P01116) | 339 pM | – | – | 79.6% and 72.6% and 94.7% and 89.8% |
| KRAS G12C | 20 µM | 2 h | vehicle and 20 µM BI compound | 1.31% and -0.59% and 0.02% and -0.73% |

Set 2 — observed: enzyme activity; action: inhibitor; concentration: 0.5 µM; relative to: control
Target: Serine/threonine-protein kinase PLK3 (PLK3, Homo sapiens, UniProt Q9H4B4)
UniProt Q9H4B4, sequence (whole entry, looked up): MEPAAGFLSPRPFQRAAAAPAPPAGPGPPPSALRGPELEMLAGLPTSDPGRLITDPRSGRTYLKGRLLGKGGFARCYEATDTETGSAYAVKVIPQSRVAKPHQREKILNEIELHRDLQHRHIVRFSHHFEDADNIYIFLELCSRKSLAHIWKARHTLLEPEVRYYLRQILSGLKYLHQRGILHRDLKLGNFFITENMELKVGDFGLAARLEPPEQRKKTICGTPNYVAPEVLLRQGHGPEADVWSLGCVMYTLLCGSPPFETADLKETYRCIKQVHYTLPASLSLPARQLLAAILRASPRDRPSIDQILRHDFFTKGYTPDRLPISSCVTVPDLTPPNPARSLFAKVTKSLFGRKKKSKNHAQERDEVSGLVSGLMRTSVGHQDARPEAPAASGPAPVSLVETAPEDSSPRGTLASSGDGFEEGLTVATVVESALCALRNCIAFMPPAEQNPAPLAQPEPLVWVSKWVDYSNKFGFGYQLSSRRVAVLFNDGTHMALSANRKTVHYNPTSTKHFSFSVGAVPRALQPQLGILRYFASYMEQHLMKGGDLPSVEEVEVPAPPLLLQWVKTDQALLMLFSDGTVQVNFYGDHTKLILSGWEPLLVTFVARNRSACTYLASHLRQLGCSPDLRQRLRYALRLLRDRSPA
| SMILES | remaining activity [%] |
| --- | --- |
| Nc1ccc2ncnc(NCCc3ccc(Oc4ccccc4)cc3)c2c1 | 98.7 |
| CC(C)[C@H](CO)Nc1nc(Nc2cc(N)cc(Cl)c2)c2ncn(C(C)C)c2n1 | 62.8 |
| Cn1c2ccccc2c2c3c(c4c5ccccc5n(CCC#N)c4c21)CNC3=O | 88.1 |
| CO[C@H]1C[C@@H]2CC[C@@H](C)[C@@](O)(O2)C(=O)C(=O)N2CCCC[C@H]2C(=O)O[C@H]([C@H](C)C[C@@H]2CC[C@@H](O)[C@H](OC)C2)CC(=O)[C@H](C)/C=C(\C)[C@@H](O)[C@@H](OC)C(=O)[C@H](C)C[C@H](C)/C=C/C=C/C=C/1C | 96.2 |
| Cc1cccc(-c2[nH]c(C(C)(C)C)nc2-c2ccc3c(c2)OCO3)n1 | 95.6 |
| O=C(Nc1cccc(Nc2cc(Nc3cccc(C(F)(F)F)c3)ncn2)c1)C1CC1 | 99.1 |
| COc1ccc(OC)c2c(=S)c3ccccc3[nH]c12 | 99.8 |
| O=C1NC(=O)C(c2cn(CCCO)c3ncccc23)=C1c1cnccn1 | 91.1 |
| O=C1NC(=O)C(c2cn(CCCn3ccnc3)c3ccccc23)=C1Nc1ccccc1 | 99.8 |
| COc1cc2nccc(Oc3ccc(NC(=S)NC(=O)c4ccccc4C)cc3)c2cc1OC | 92.1 |
| O=C(O)c1ccc2c3c1cccc3c(=O)n1c3ccccc3nc21 | 93.9 |
| Nc1[nH]nc2nc3ccccc3nc12 | 96.3 |
| CNC(=O)c1cc(Oc2ccc(NC(=O)Nc3ccc(Cl)c(C(F)(F)F)c3)cc2)ccn1 | 99.3 |
| Oc1ccc(-c2nc(-c3ccncc3)c(-c3ccc(F)cc3)[nH]2)cc1 | 96.2 |

Set 3 — observed: binding; concentration: 1 µM
SMILES: CN1CCN(C(=O)c2ccc(NC(=O)Nc3ccc(N(C)c4ccnc(Nc5ccc(CS(C)(=O)=O)cc5)n4)cc3)cc2)CC1
| target | method | remaining binding [%] |
| --- | --- | --- |
| Ribosomal protein S6 kinase alpha-4, N-terminal kinase domain (RPS6KA4, Homo sapiens, UniProt O75676) | competition with immobilised ligand | 82 |
| Bone morphogenetic protein receptor type-1B (BMPR1B, Homo sapiens, UniProt O00238) | competition with immobilised ligand | 1.1 |
| cGMP-dependent protein kinase 2 (PRKG2, Homo sapiens, UniProt Q13237) | – | 100 |
| Tyrosine-protein kinase Fyn (FYN, Homo sapiens, UniProt P06241) | competition with immobilised ligand | 98 |
| Dual specificity protein kinase CLK4 (CLK4, Homo sapiens, UniProt Q9HAZ1) | – | 100 |

Set 4 — observed: cell-free assay; method: competition with immobilised ligand; concentration: 1 µM
SMILES: CN(C)c1ncnc(-c2ccc3nc(Nc4cc(CN5CCN(C(=O)CC(F)(F)F)CC5)ccn4)[nH]c3c2)c1Cl
| target | remaining binding [%] |
| --- | --- |
| Non-receptor tyrosine-protein kinase TYK2, JH1 (TYK2, Homo sapiens, UniProt P29597) | 51 |
| Myosin light chain kinase 2, skeletal/cardiac muscle (MYLK2, Homo sapiens, UniProt Q9H1R3) | 100 |
| Ephrin type-A receptor 8 (EPHA8, Homo sapiens, UniProt P29322) | 100 |
| Serine/threonine-protein kinase D3 (PRKD3, Homo sapiens, UniProt O94806) | 88 |

Set 5 — cell line: HuT78; concentration: 2 µM; time: 48 h; relative to: untreated
| SMILES | viability [%] |
| --- | --- |
| C=CC(=O)Nc1cccc(Nc2nc(Nc3ccc(Oc4ccnc(C(=O)NC)c4)cc3)ncc2F)c1 | 92.3 |
| CC(=O)c1c(C)c2cnc(Nc3ccc(N4CCNCC4)cn3)nc2n(C2CCCC2)c1=O | 94.5 |
| O=C(NCCO)c1cccc(-c2cc(Nc3ccc(OC(F)(F)F)cc3)ncn2)c1 | 112 |
| CCCS(=O)(=O)Nc1ccc(F)c(C(=O)c2c[nH]c3ncc(-c4ccc(Cl)cc4)cc23)c1F | 124 |

Excerpt of the above (set 5):
| SMILES | viability [%] |
| --- | --- |
| C=CC(=O)Nc1cccc(Nc2nc(Nc3ccc(Oc4ccnc(C(=O)NC)c4)cc3)ncc2F)c1 | 92.3 |
| CC(=O)c1c(C)c2cnc(Nc3ccc(N4CCNCC4)cn3)nc2n(C2CCCC2)c1=O | 94.5 |
| O=C(NCCO)c1cccc(-c2cc(Nc3ccc(OC(F)(F)F)cc3)ncn2)c1 | 112 |
